Measured values gathered from unrelated publications.
Protocols differ between the studies behind these lines. ± marks the error that the study gave.

Structure (SMILES)	organism	assay	system	setting	IC50
Cc1ccc2c(c1)C(=O)C(=O)N2CC#CCN1CCN(c2ccnc3cc(Cl)ccc23)CC1	Tritrichomonas foetus	growth	D1		24.5 µM
CCC(=O)Nc1cc(C(=O)CNc2ccc(C(C)(C)C)cc2)ccc1OC	Enterovirus A	cytopathic effect	Vero, EV71	48 h	> 20.1 µM
O=C1C2=C(Nc3ccccc3SC2c2ccc(Br)cc2)c2ccccc21 (stereo not shown)	Chlamydia trachomatis	inclusion formation, immunofluorescence imaging	HEp-2, serovar L2	24 h post-infection, added 8 h post-infection	7.5 ± 1.01 µg/mL
CCC(=O)Nc1cc(C(=O)Nc2ccc(C(C)C)cc2)ccc1OC	Enterovirus A	cytopathic effect	Vero, EV71	48 h	8.41 µM
O=C(O)c1ccc(C2Sc3ccccc3NC3=C2C(=O)c2ccccc23)cc1 (stereo not shown)	Chlamydia trachomatis	inclusion formation, immunofluorescence imaging	HEp-2, serovar L2	24 h post-infection, added 8 h post-infection	> 25 µg/mL
CC1(C)CC[C@]2(C(=O)O)CC[C@]3(C)C(=CC[C@@H]4[C@@]5(C)CC[C@H](O)C(C)(C)[C@@H]5CC[C@]43C)[C@@H]2C1	Eimeria tenella	viability	sporozoites	24 h	21.2 µM
O=[N+]([O-])c1ccc2[nH]ccc2c1	Trypanosoma equiperdum		trypomastigotes, IVM-t1		> 154 µM
C[C@H]1[C@H](C)CC[C@]2(C(=O)O)CC[C@]3(C)C(=CC[C@@H]4[C@@]5(C)CC[C@H](O)C(C)(C)[C@@H]5CC[C@]43C)[C@H]12	Eimeria tenella	parasite growth		24 h	20.1 µM
O=C1NC(=S)S/C1=C\c1cn(Cc2ccccc2)c2ccc([N+](=O)[O-])cc12	Trypanosoma equiperdum		trypomastigotes, IVM-t1		> 73 µM
CCCCc1ccc(NC(=O)c2ccc(OC)c(NC(=O)CC)c2)cc1	Enterovirus A	cytopathic effect	Vero, EV71	48 h	14.2 µM
O=C1C(=O)N(CC#CCN2CCN(c3ccnc4cc(Cl)ccc34)CC2)c2ccc(Cl)cc21	Tritrichomonas foetus	growth	D1		11.3 µM
N#Cc1ccccc1C1Sc2ccc(C(F)(F)F)cc2NC2=C1C(=O)c1ccccc12 (stereo not shown)	Chlamydia trachomatis	inclusion formation, immunofluorescence imaging	HEp-2, serovar L2	24 h post-infection, added 8 h post-infection	0.7 µg/mL
CCCCc1ccc(NC(=O)c2ccc(OC)c(NC)c2)cc1	Enterovirus A	cytopathic effect	Vero, EV71	48 h	6.89 µM
O=C1CSC(=S)N1/N=C/c1cn(Cc2cccc(Cl)c2)c2ccc([N+](=O)[O-])cc12	Trypanosoma equiperdum		trypomastigotes, IVM-t1		> 56 µM
CCC(=O)Nc1cc(C(=O)Nc2ccc(C#N)cc2)ccc1OC	Enterovirus A	cytopathic effect	Vero, EV71	48 h	> 68.8 µM
O=C1C2=C(Nc3ccccc3SC2c2ccccc2C(=O)O)c2ccccc21 (stereo not shown)	Chlamydia trachomatis	inclusion formation, immunofluorescence imaging	HEp-2, serovar L2	24 h post-infection, added 8 h post-infection	> 25 µg/mL
O=C1CSC(=S)N1/N=C/c1cn(Cc2ccccc2)c2ccc([N+](=O)[O-])cc12	Trypanosoma equiperdum		trypomastigotes, IVM-t1		> 60 µM
CC[C@@H](C(=O)[C@@H](C)[C@@H](O)[C@H](C)CCc1ccc(C)c(O)c1C(=O)O)[C@H]1O[C@](CC)([C@H]2CC[C@](O)(CC)[C@H](C)O2)C[C@@H]1C	Eimeria tenella	viability	sporozoites	24 h	0.03 µM
O=C1CSC(=S)N1/N=C/c1cn(Cc2ccc(F)cc2)c2ccc([N+](=O)[O-])cc12	Trypanosoma equiperdum		trypomastigotes, IVM-t1		> 58 µM
CCC(=O)Nc1cccc(C(=O)Nc2ccc(Cl)cc2)c1	Enterovirus A	cytopathic effect	Vero, EV71	48 h	14.2 µM
Cc1ccc(Cn2cc(/C=N/N3C(=O)CSC3=S)c3cc([N+](=O)[O-])ccc32)cc1	Trypanosoma equiperdum		trypomastigotes, IVM-t1		> 58 µM
CCC(=O)Nc1cc(C(=O)Nc2ccc(N3CCN(C)CC3)cc2)ccc1OC	Enterovirus A	cytopathic effect	Vero, EV71	48 h	> 168 µM

For quick reference, copied from above:
Structure (SMILES)	organism	assay	system	setting	IC50
CC1(C)CC[C@]2(C(=O)O)CC[C@]3(C)C(=CC[C@@H]4[C@@]5(C)CC[C@H](O)C(C)(C)[C@@H]5CC[C@]43C)[C@@H]2C1	Eimeria tenella	viability	sporozoites	24 h	21.2 µM
CCC(=O)Nc1cc(C(=O)CNc2ccc(C(C)(C)C)cc2)ccc1OC	Enterovirus A	cytopathic effect	Vero, EV71	48 h	> 20.1 µM
CC[C@@H](C(=O)[C@@H](C)[C@@H](O)[C@H](C)CCc1ccc(C)c(O)c1C(=O)O)[C@H]1O[C@](CC)([C@H]2CC[C@](O)(CC)[C@H](C)O2)C[C@@H]1C	Eimeria tenella	viability	sporozoites	24 h	0.03 µM
